Measurements collected from several papers.
“And” joins repeats or separate records; there may be more than shown. ± gives the spread as reported.

| Structure (SMILES) | cell line | assay | system | setting | scale | quantity | result |
| --- | --- | --- | --- | --- | --- | --- | --- |
| CC(C)C[C@H](NC(=O)[C@H](CCC(=O)O)NC(=O)[C@@H](N)Cc1ccccc1)C(=O)N[C@@H](CCC(=O)O)C(=O)N[C@@H](CCCNC(=N)N)C(=O)N[C@@H](CCCNC(=N)N)C(=O)N[C@@H](Cc1ccccc1)C(=O)N[C@@H](CCCCN)C(=O)N[C@@H](CCC(N)=O)C(=O)N[C@@H](CCC(N)=O)C(=O)O | HCT-116 | CCK-8 |  | 1.25 µM | baseline: vehicle | viability | 96.9% and 101% and 107% |
| CC(C)(C)C(=O)OCOP(=O)(OCOC(=O)C(C)(C)C)C1CCCN(O)C1=O (stereo not drawn) | UO-31 |  |  |  |  | log LC50 | > -4 log M |
| O=C(O)c1ccc(-c2nc(-c3ccccc3Cl)c3sccn23)cc1 | K562 | erythroid differentiation, flow cytometry |  | 0.01 mM, 72 h, unit not given | baseline: untreated | CD71 fluorescence intensity | 1 |
| Cc1c(Cl)cccc1Nc1ccccc1C(=O)[Se]CC(=O)Nc1cccc(C(F)(F)F)c1 | NCI60 colon subpanel | NCI60 five-dose screen |  |  |  | CC50 | 18.2 µM |
| CC(C)C[C@H](NC(=O)[C@H](CC(=O)O)NC(=O)CNC(=O)[C@@H](N)CCCNC(=N)N)C(=O)N[C@@H](C)C(=O)N[C@H](C(=O)N[C@@H](CC(C)C)C(=O)N[C@@H](CCCNC(=N)N)C(=O)N[C@@H](CCC(N)=O)C(=O)N[C@@H](CC(C)C)C(=O)N[C@@H](C)C(=O)N[C@@H](CCC(N)=O)C(=O)N[C@@H](CCC(=O)O)C(=O)N[C@@H](CC(=O)O)C(=O)NCC(=O)N[C@H](C(=O)N[C@H](C(=O)NCC(=O)N[C@H](C(=O)N[C@@H](CCCNC(=N)N)C(=O)NCCOCCOCCOCCOCCOCCOCCOCCOCCOCCOCCOCCOCCC(=O)N[C@@H](CS)C(N)=O)C(C)C)C(C)C)C(C)C)[C@@H](C)O | HCC827 | phage binding |  |  | baseline: targeting over control phage | selectivity ratio | 180 ± 66 |
| CC[C@H](C)[C@H](NC(=O)[C@@H](NC(=O)[C@@H]1CCCN1C(=O)[C@@H](NC(=O)[C@@H](NC(=O)[C@H](Cc1c[nH]cn1)NC(=O)[C@@H]1CCCN1C(=O)[C@H](CC(C)C)NC(=O)[C@@H](NC(=O)[C@H](Cc1c[nH]cn1)NC(=O)[C@H](CCCCN)NC(=O)[C@H](C)NC(=O)[C@H](CO)NC(=O)CNC(=O)[C@H](CC(C)C)NC(=O)[C@@H](NC(=O)CNC(=O)[C@H](Cc1ccccc1)NC(=O)[C@H](CC(C)C)NC(=O)CNC(=O)[C@@H](N)Cc1ccc(O)cc1)C(C)C)C(C)C)C(C)C)C(C)C)C(C)C)C(=O)N[C@@H](C)C(=O)N[C@@H](CCC(=O)O)C(=O)N[C@@H](Cc1c[nH]cn1)C(=O)N[C@@H](CC(C)C)C(N)=O | LO2 | MTT |  | 40 µg/mL, 24 h |  | viability | 74.8 ± 1.67% |
| COc1ccccc1-c1ccncc1C(=O)Nc1nnc(OCc2ccc(Cl)cc2)s1 | DLD-1 BRCA2-/- |  |  | 1 µM, single replicate | baseline: untreated | colony survival | 33.3% and 35.3% and 47.9% |
| CCCCNC(=O)c1ccc2nc(CC)c(N(C)Cc3ccc(OC)cc3)n2c1 | bEnd.5 monolayer |  | in vitro blood-brain barrier model | IC50 and 1.5 x IC50, 48 h | baseline: untreated | transendothelial electrical resistance | increased |
| O=C(C[Se]C(=O)c1ccccc1)Nc1cccc(C(F)(F)F)c1 | NCI60 CNS subpanel | NCI60 five-dose screen |  |  |  | CC50 | 7.81 µM |
